Measured values pooled from the literature.
Lines come from different studies, so protocols differ.
PIK3CA H1047Y: Phosphatidylinositol 4,5-bisphosphate 3-kinase catalytic subunit alpha isoform (PIK3CA, Homo sapiens, UniProt P42336, H1047Y)
PIK3CA: Phosphatidylinositol 4,5-bisphosphate 3-kinase catalytic subunit alpha isoform (PIK3CA, Homo sapiens, UniProt P42336)
PIK3CA I800L: Phosphatidylinositol 4,5-bisphosphate 3-kinase catalytic subunit alpha isoform (PIK3CA, Homo sapiens, UniProt P42336, I800L)
PIK3CA E545K: Phosphatidylinositol 4,5-bisphosphate 3-kinase catalytic subunit alpha isoform (PIK3CA, Homo sapiens, UniProt P42336, E545K)

`CNC(=O)C1CCN(c2cc(C)c(F)cc2NC(=O)c2ccc(-c3cc(O)ccc3C)c(C)c2)CC1` has a remaining binding of 100% (Phosphatidylinositol 4,5-bisphosphate 3-kinase catalytic subunit alpha isoform (PIK3CA, Homo sapiens, UniProt P42336, E545A); binding, competition with immobilised ligand; 1 µM).
`C=CC(=O)N1CCCC(n2c(=O)c3ncccc3n(Cc3ccc(Oc4ccccc4)cc3)c2=O)C1` (stereo not shown) gave a remaining binding of 96% (PIK3CA H1047Y; cell-free assay, competition with immobilised ligand; 1 µM).
`Nc1ncc2c(n1)-c1c([nH]c3ccc(C4=CCOCC4)cc13)CCC2` has a remaining binding of 89% (PIK3CA; binding, competition with immobilised ligand; 1 µM).
`Cc1cnc2nc1Nc1cccc(c1)COC/C=C/COCc1cc(ccc1OCCN1CCOCC1)N2` has a remaining binding of 80% (PIK3CA I800L; binding; 0.1 µM).
`CN1CCN(Cc2ccc(NC(=O)c3cccc(C#Cc4cnc(N)c5ncccc45)c3)cc2C(F)(F)F)CC1` gave a remaining binding of 100% (PIK3CA; cell-free assay, competition with immobilised ligand; 0.5 µM).
For `COc1c(Cl)cccc1Nc1c(-c2ccncc2C#C[C@@]2(C)CCCN2C(=O)/C=C/CN(C)C)[nH]c2c1C(=O)NCC2`, the remaining binding was 73% (PIK3CA H1047Y; binding, competition with immobilised ligand; 3 µM).
With `CC(=O)c1cnc(N)nc1N1CC[C@H]1c1nn2ccc(Cl)c2c(=O)n1-c1ccccc1` the remaining binding was 83% (Phosphatidylinositol 4,5-bisphosphate 3-kinase catalytic subunit alpha isoform (PIK3CA, Homo sapiens, UniProt P42336, C420R); binding, competition with immobilised ligand; 10 µM).
The remaining binding of `C=CC(=O)N1CCc2ccc(-n3c(=O)ccc4cnc5ccc(-c6cnn(C)c6)cc5c43)cc21` is reported as 81% (Phosphatidylinositol 4,5-bisphosphate 3-kinase catalytic subunit alpha isoform (PIK3CA, Homo sapiens, UniProt P42336, Q546K); KINOMEscan; 1 µM; reference: DMSO control).
`COc1cc(Nc2nccc(-c3cnn4nc(OC)ccc34)n2)cc(C(F)(F)F)c1` gave a remaining binding of 100% (PIK3CA E545K; binding; 1 µM).
The remaining binding of `CCN1CCN(Cc2ccc(C(=O)Nc3ccc(C)c(NCc4cnc5[nH]ccc5c4OC)c3)cc2C(F)(F)F)CC1` is reported as 62% (PIK3CA E545K; binding, competition with immobilised ligand; 1 µM).
For `Cc1ccc(-c2c(/C=C(\C#N)C(=O)NC(C)C)n(CCCO)c3ncnc(N)c23)cc1`, the remaining binding was 100% (Phosphatidylinositol 4,5-bisphosphate 3-kinase catalytic subunit alpha isoform (PIK3CA, Homo sapiens, UniProt P42336, E542K); cell-free assay, competition with immobilised ligand; 1 µM).
`CC(C)=CC1OC(C)(C)C2C=C3C(=O)C(Cl)=CC(O)C3C3C(O)C4OC4C(=O)C132` (stereo not shown) gave a remaining binding of 55% (PIK3CA I800L; cell-free assay, competition with immobilised ligand; 10 µM).
The remaining binding of `CNC1C[S+]2CC[S+]3CC[S+](C1)[Ru-4]321([N]=C=S)[n]2c3ccc(OC)cc3c3c4c(c5cc(F)c[n+]1c5c32)C(=O)NC4=O` (stereo not shown) is reported as 100% (PIK3CA E545K; KinomeScan; 0.1 µM; reference: untreated).

Some of these lines once more:
`Cc1cnc2nc1Nc1cccc(c1)COC/C=C/COCc1cc(ccc1OCCN1CCOCC1)N2` has a remaining binding of 80% (PIK3CA I800L; binding; 0.1 µM).
